Published values gathered from unrelated publications.
Numbered parts are unrelated; each lists some results of a single study.
UniProt Q9Y4K4, sequence (whole entry, looked up): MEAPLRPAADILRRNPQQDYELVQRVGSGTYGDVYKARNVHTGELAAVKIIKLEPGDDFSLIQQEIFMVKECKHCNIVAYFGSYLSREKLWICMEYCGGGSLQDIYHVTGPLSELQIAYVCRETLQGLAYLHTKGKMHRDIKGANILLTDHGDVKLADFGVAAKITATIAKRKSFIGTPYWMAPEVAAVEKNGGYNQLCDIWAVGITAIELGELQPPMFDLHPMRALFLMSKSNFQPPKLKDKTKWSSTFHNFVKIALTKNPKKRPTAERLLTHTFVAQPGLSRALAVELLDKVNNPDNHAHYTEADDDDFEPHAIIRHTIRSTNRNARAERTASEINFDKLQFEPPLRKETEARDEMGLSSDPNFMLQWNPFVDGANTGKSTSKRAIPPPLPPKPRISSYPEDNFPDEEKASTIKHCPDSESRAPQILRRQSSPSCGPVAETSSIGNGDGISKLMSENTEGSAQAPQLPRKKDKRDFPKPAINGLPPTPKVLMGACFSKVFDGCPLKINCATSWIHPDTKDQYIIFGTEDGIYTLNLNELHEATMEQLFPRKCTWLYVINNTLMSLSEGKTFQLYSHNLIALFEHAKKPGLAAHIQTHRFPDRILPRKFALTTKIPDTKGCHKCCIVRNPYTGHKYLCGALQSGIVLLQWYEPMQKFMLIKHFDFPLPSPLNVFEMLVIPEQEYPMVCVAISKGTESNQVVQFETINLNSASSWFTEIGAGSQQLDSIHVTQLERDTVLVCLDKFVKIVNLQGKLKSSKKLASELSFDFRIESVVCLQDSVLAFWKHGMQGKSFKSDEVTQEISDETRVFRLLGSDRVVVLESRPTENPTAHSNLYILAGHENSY
UniProt P10721, sequence (whole entry, unmodified, looked up): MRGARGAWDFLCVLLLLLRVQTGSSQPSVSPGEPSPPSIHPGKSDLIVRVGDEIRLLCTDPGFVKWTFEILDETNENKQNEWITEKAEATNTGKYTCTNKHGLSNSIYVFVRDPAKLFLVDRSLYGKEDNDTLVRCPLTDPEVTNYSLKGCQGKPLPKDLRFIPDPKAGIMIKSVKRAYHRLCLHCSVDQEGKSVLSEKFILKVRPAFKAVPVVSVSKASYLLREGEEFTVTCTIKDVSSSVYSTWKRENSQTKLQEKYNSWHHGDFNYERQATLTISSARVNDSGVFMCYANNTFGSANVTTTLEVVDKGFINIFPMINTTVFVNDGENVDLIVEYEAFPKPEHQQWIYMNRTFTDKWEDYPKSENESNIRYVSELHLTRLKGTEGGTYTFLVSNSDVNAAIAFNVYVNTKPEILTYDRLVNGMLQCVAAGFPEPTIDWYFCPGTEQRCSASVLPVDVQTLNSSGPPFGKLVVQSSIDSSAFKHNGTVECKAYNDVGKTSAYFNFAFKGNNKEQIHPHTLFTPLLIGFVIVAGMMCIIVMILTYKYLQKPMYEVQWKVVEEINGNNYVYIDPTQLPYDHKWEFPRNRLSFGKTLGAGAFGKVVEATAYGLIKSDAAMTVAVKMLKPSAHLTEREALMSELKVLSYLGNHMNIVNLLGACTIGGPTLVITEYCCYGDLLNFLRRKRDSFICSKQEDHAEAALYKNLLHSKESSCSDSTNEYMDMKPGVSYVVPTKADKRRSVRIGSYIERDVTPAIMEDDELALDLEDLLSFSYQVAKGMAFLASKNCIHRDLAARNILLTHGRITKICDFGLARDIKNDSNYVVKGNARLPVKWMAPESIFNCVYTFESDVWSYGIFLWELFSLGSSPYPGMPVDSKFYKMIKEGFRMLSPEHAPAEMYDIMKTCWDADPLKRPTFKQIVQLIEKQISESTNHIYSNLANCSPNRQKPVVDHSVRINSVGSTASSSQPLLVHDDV
UniProt P32247, sequence (whole entry, looked up): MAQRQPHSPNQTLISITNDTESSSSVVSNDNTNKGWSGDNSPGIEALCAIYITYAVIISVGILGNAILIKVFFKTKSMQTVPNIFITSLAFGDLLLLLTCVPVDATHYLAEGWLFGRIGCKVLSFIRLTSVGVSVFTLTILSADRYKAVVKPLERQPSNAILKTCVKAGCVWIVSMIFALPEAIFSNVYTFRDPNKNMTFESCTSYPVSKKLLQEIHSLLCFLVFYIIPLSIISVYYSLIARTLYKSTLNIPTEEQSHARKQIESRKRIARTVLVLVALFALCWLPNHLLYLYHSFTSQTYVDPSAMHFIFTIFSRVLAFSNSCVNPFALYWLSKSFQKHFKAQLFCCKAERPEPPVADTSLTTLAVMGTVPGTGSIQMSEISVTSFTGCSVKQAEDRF
UniProt Q96RI9, sequence (whole entry, looked up): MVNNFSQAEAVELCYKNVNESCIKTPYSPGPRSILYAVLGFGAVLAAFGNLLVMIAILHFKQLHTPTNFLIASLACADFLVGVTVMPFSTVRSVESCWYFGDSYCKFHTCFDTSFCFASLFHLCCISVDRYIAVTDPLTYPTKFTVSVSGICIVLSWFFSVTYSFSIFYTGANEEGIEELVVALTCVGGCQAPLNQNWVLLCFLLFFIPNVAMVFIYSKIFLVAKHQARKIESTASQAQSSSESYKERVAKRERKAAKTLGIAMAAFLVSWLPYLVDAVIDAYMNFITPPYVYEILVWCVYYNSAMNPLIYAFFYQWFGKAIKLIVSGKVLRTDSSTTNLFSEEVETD
UniProt Q9BZJ7, sequence (whole entry, looked up): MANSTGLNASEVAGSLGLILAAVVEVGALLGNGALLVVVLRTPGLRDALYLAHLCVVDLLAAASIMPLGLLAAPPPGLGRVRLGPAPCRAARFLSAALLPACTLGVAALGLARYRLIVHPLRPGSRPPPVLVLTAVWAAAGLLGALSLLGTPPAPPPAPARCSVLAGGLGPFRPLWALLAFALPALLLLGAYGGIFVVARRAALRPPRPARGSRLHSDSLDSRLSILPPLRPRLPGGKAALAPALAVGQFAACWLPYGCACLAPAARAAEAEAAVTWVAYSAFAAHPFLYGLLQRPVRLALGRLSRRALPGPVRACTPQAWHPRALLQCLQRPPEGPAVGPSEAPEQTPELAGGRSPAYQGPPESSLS
UniProt Q00536, sequence (whole entry, looked up): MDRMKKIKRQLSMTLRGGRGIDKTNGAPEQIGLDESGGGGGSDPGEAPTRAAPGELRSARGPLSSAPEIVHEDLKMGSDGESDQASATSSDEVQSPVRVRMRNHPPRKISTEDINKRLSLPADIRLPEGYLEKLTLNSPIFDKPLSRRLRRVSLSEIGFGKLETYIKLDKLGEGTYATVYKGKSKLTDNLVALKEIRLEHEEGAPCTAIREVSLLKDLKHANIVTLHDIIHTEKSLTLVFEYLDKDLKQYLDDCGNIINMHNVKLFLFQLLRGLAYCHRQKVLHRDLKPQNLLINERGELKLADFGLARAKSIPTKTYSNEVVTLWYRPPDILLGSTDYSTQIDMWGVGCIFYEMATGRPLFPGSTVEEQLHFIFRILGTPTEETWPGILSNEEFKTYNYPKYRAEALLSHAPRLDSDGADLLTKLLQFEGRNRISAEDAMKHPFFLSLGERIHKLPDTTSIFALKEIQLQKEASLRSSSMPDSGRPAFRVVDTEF
UniProt Q14833, sequence (whole entry, looked up): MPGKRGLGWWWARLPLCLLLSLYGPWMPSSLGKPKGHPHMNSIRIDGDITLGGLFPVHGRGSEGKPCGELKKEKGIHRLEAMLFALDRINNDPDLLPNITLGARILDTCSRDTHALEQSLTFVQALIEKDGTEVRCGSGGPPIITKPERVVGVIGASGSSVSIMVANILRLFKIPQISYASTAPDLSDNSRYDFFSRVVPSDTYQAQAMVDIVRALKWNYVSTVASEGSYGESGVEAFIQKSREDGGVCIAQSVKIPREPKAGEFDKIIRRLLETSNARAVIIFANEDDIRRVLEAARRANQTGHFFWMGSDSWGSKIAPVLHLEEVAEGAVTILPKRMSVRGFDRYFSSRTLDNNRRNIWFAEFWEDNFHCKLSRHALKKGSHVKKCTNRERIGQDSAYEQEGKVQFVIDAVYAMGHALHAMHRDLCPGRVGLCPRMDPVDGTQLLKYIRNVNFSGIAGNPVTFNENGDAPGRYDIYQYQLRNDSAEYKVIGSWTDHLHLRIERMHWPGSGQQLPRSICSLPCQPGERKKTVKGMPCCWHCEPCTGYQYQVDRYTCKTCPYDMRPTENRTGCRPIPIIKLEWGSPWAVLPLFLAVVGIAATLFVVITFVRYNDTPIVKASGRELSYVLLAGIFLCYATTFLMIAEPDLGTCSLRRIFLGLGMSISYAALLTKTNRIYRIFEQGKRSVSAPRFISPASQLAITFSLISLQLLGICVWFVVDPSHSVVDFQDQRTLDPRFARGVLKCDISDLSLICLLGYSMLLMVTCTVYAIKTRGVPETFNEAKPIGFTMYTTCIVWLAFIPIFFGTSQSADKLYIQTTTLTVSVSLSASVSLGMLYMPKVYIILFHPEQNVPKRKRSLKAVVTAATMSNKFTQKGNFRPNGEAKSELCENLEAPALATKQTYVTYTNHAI
UniProt P32241, sequence (whole entry, looked up): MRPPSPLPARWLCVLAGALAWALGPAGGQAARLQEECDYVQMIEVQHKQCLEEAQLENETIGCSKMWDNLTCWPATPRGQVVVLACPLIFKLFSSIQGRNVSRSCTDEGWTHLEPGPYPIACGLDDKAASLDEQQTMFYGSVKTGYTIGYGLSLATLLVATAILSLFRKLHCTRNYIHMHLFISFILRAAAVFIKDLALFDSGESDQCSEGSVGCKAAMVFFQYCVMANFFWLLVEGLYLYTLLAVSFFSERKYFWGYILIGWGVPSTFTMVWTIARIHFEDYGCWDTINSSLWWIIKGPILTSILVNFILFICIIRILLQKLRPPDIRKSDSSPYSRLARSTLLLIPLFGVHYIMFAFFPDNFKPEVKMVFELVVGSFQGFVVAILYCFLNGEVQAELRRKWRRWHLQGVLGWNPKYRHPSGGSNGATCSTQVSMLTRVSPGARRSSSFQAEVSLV

Set 1
SMILES: N=C(N)NC(=O)c1cnn(-c2cccc3ncccc23)c1C1CC1
Read-out: β-arrestin recruitment
Mode: agonist
Technique: PRESTO-Tango
Concentration: 10 µM
Reference: untreated
For Trace amine-associated receptor 9 (TAAR9, Homo sapiens, UniProt Q96RI9): “fold over basal” read 0.85 fold.
Gastrin/cholecystokinin type B receptor (CCKBR, Homo sapiens, UniProt P32239) — “fold over basal”: 1.14.
Cannabinoid receptor 2 (CNR2, Homo sapiens, UniProt P34972) — “fold over basal”: 1.
For Metabotropic glutamate receptor 4 (GRM4, Homo sapiens, UniProt Q14833): “fold over basal” read 1.64 fold.
It gave 1.33 for “fold over basal” (Bombesin receptor subtype-3 (BRS3, Homo sapiens, UniProt P32247)).
It gave 0.75 fold for “fold over basal” (Histamine H3 receptor (HRH3, Homo sapiens, UniProt Q9Y5N1)).
Vasoactive intestinal polypeptide receptor 1 (VIPR1, Homo sapiens, UniProt P32241) — “fold over basal”: 1.25 fold.
C-C chemokine receptor type 7 (CCR7, Homo sapiens, UniProt P32248) — “fold over basal”: 1.12.
The “fold over basal” was 0.94 fold (Metabotropic glutamate receptor 1 (GRM1, Homo sapiens, UniProt Q13255)).
It gave 0.99 for “fold over basal” (G-protein coupled receptor 62 (GPR62, Homo sapiens, UniProt Q9BZJ7)).

Set 2
Target: Tyrosine-protein kinase receptor UFO (AXL, Homo sapiens, UniProt P30530)
Read-out: enzyme activity
Mode: inhibitor
Concentration: 0.5 µM
Reference: control
Target sequence (P30530 1-894): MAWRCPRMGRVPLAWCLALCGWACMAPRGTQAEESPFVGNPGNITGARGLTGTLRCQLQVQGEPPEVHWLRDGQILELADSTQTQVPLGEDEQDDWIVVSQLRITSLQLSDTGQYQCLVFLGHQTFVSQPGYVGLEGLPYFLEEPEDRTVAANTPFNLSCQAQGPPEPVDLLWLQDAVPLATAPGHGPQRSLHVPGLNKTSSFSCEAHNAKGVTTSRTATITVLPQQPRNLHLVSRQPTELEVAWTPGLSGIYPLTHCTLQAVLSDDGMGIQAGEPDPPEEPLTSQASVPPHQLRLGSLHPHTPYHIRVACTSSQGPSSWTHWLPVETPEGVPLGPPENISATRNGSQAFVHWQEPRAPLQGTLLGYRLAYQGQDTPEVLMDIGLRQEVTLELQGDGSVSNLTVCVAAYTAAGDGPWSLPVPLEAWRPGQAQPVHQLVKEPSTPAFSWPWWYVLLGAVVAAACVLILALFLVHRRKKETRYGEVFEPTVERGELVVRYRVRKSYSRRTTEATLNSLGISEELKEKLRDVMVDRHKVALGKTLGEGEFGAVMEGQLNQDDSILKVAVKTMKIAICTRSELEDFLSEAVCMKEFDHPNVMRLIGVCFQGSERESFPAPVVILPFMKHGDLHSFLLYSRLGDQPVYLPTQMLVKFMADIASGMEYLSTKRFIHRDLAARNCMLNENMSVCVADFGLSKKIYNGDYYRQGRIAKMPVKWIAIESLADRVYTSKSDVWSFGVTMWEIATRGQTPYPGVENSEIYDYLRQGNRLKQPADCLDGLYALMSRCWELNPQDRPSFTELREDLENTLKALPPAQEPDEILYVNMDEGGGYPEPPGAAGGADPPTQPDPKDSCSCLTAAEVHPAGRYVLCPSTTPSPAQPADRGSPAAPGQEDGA
The remaining activity of `Ic1cccc(CSc2nnc(-c3ccncc3)o2)c1` is reported as 99.2%.
The remaining activity of `CN(C)C[C@H]1CCn2c(c(C3=C(c4cn(C)c5ccccc45)C(=O)NC3=O)c3ccccc32)C1` is reported as 99.3%.
With `COc1cc2ncnc(Nc3ccc(O)c(Br)c3)c2cc1OC` the remaining activity was 89.4%.
`N#Cc1c(NC(=O)c2cccc3ccccc23)sc2c1CCCC2` gave a remaining activity of 106%.
With `Nc1cccc(-c2cc3c(Oc4cccc(O)c4)ncnc3[nH]2)c1` the remaining activity was 75.9%.
`N#C/C(=C\c1ccc(O)c(O)c1)C(=O)NCc1ccccc1` has a remaining activity of 95.1%.
For `Cc1cc2ncc(-c3ccccc3)nc2cc1C`, the remaining activity was 100%.
The remaining activity of `CCN(CC)CCNC(=O)c1c(C)[nH]c(/C=C2\C(=O)Nc3ccc(F)cc32)c1C` is reported as 27.4%.
For `CCOc1nc(NC(=O)Cc2cc(OC)ccc2OC)cc(N)c1C#N`, the remaining activity was 105%.
The remaining activity of `Cc1cn(-c2cc(NC(=O)c3ccc(C)c(Nc4nccc(-c5cccnc5)n4)c3)cc(C(F)(F)F)c2)cn1` is reported as 64.8%.
For `COc1cc2c(cc1OC)-c1[nH]nc(Nc3cccc(F)c3)c1C2`, the remaining activity was 96.1%.
`c1ccc(-c2[nH]ncc2-c2ccnc3ccccc23)nc1` gave a remaining activity of 101%.
`C[C@@H]1CCN(C(=O)CC#N)C[C@@H]1N(C)c1ncnc2[nH]ccc12` gave a remaining activity of 97.7%.
With `COc1cc2ncnc(Nc3cccc(Cl)c3)c2cc1OC` the remaining activity was 95.3%.
`c1ccc(-c2cnc(Nc3ccc(OCCN4CCCC4)cc3)s2)cc1` gave a remaining activity of 97.1%.
`CCN(CC)C(=O)c1ccc(Nc2nc(OCC3CCCCC3)c3[nH]cnc3n2)cc1` has a remaining activity of 80.8%.
`O=C(NC(NC(=S)Nc1ccc(F)c([N+](=O)[O-])c1)C(Cl)(Cl)Cl)C(c1ccccc1)c1ccccc1` (stereo not shown) gave a remaining activity of 112%.
The remaining activity of `Cc1nc2cc3nc(-c4cccs4)cnc3cc2n1C` is reported as 109%.
`O=C1c2ccccc2-c2n[nH]c3cccc1c23` has a remaining activity of 85.8%.
The remaining activity of `CN([C@@H](Cc1ccc(OS(=O)(=O)c2cccc3cnccc23)cc1)C(=O)N1CCN(c2ccccc2)CC1)S(=O)(=O)c1cccc2cnccc12` is reported as 103%.

Set 3
Structure (SMILES): C[C@H](c1cccc(C#N)c1)n1cc(Cl)cc(C(N)=O)c1=N
Read-out: cell-free assay
Technique: competition with immobilised ligand
Concentration: 1 µM
Tyrosine-protein kinase ABL1, phosphorylated (ABL1, Homo sapiens, UniProt P00519, F317L) — remaining binding: 83%.
The remaining binding was 90% (Mitogen-activated protein kinase kinase kinase 1 (MAP3K1, Homo sapiens, UniProt Q13233)).
For Receptor-interacting serine/threonine-protein kinase 2 (RIPK2, Homo sapiens, UniProt O43353): remaining binding read 66%.
For Cyclin-dependent kinase 16 (CDK16, Homo sapiens, UniProt Q00536): remaining binding read 83%.
Epidermal growth factor receptor (EGFR, Homo sapiens, UniProt P00533) — remaining binding: 100%.
Tyrosine-protein kinase ABL1, non-phosphorylated (ABL1, Homo sapiens, UniProt P00519, Q252H) — remaining binding: 100%.
The remaining binding was 100% (Mast/stem cell growth factor receptor Kit (KIT, Homo sapiens, UniProt P10721, T670I/V559D)).
cAMP-dependent protein kinase catalytic subunit alpha (PRKACA, Homo sapiens, UniProt P17612) — remaining binding: 100%.
It gave 100% for remaining binding (Mitogen-activated protein kinase kinase kinase kinase 5 (MAP4K5, Homo sapiens, UniProt Q9Y4K4)).

Set 4
Cell line: HaCaT
Concentration: 100 µM
Time: 60 h
With `CCCCC[C@H](O)/C=C/[C@H]1[C@H](O)CC(=O)[C@@H]1CCCCCCC(=O)O` the viability was 118%.
`CC(=O)O[C@]1(C(C)=O)CC[C@H]2[C@@H]3C=C(C)C4=CC(=O)CC[C@]4(C)[C@H]3CC[C@@]21C` gave a viability of 113%.
The viability of `Cc1onc(-c2ccccc2)c1C(=O)N[C@@H]1C(=O)N2[C@@H]1SC(C)(C)[C@@H]2C(=O)O` is reported as 129%.
With `C[N+]1(CCCCC[N+]2(C)CCCC2)CCCC1` the viability was 141%.

Repeated from above (set 2):
`CCN(CC)C(=O)c1ccc(Nc2nc(OCC3CCCCC3)c3[nH]cnc3n2)cc1` has a remaining activity of 80.8%.
With `Nc1cccc(-c2cc3c(Oc4cccc(O)c4)ncnc3[nH]2)c1` the remaining activity was 75.9%.
`C[C@@H]1CCN(C(=O)CC#N)C[C@@H]1N(C)c1ncnc2[nH]ccc12` gave a remaining activity of 97.7%.
